# Assay results gathered from unrelated publications.
# Parts stem from different laboratories: compare values within a part only.

# Study 1
# Target: Histone acetyltransferase KAT6A, winged helix 2, GST fusion (KAT6A, Homo sapiens, UniProt Q92794, residues 85-181)
# Method: protein binding microarray
# Form: double-stranded DNA, one strand shown
# Medium: in vitro
# Tested at: not given
# Setting: 8-mer, flanks averaged, mean of 2 arrays, mostly near background
# Baseline: not given
# Reading: higher = stronger binding
# Construct (chain): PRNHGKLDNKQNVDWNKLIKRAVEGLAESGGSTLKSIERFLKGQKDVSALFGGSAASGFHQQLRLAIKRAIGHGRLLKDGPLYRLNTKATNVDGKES
Sequence,E-score
AATGGCCT,-0.0312
GCTAGCCA,-0.0495
CAACCCTG,0.124
AGTCACAC,-0.194
AGCGTCGA,0.0302
ATACTGGA,-0.0112
ACGGCCTG,0.176
GGGTGTAA,0.065
TGGGTTAA,-0.0154
AACGGATG,0.0115
CGTATACA,-0.0865
GCCTGGAA,-0.0222
TTGCGCAA,-0.0602
AATCGGGC,0.0581
ATAGCAAA,0.144
TCAGCAAA,0.201
ATAGCCGA,-0.0679
CCACAATA,-0.0964
GAATGAGC,-0.121
ATCTTCAG,0.165
ACCATTCA,-0.0938

# Study 2
# Target: RNA binding protein fox-1 homolog 2, RRM domain, GST-SBP tag (RBFOX2, Homo sapiens, UniProt O43251-10, residues 100-194)
# Method: RNA Bind-n-Seq
# Form: RNA
# Medium: in vitro
# Tested at: 365 nM
# Setting: natural RNA segment, single round, ends assumed
# Baseline: no-protein control
# Reading: higher = stronger binding
# Construct (chain): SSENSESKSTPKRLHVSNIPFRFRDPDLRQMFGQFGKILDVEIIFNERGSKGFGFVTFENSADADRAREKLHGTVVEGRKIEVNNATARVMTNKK
Sequence,RBNS enrichment (R)
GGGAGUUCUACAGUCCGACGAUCGCUGAGCAAGUCUGUAAACUGAUUCUGGGAGAAACCAAGCUGCUGGCCAUAGGGUGUCCUUGGGUACAUCCAGGAGUCUUCAUUGCUUCUGUUAUUACCCCGUCUCCUCUUGGAAUUCUCGGGUGCCAA,0.278
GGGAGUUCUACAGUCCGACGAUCGCACAUCACUUCCUUCCUGAAAGCCUAAGAGUGUGUAUGUUUGUGUAUGCACAGAGCAGACAGACUAAUGGAUCUCUGUUUUCUGCCAGUCAUCAGUGUGCCCUUGAAGCUGGAAUUCUCGGGUGCCAA,0.645
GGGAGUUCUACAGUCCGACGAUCCUCUGGCUGCAGAGUUGAGGUUGGACUCUGGAGUGGAUGGUGGAGAUGAGGCACAGUGGAGAGAAAGCUGGGCUAGGCCAUUGAAAUAGAGGCUGGGUUUUUUAAUAAGAUGGAAUUCUCGGGUGCCAA,0.989
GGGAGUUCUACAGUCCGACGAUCUUUCCCCCAGAUGUUGGGUUGCAUGCCAAUAAACAUGUGGCUUCUUCUCAAAGCCUGUCUUCAAAAAAGCUGAGGCAAAAUGCUAAUAUUAAUUCAGCCUGGCCUCGAAAUGGAAUUCUCGGGUGCCAA,2.17
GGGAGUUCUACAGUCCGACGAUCCCUAAGGCCCUGCUGUCUGCCGAGGAGCGCCAAGAAGAUGUCACUUGUUUACACACGAACUGCCACAUCCCCAAGCUCCGUUCUUGCCCCUCGUGUCCUAGGCCCAACCCUGGAAUUCUCGGGUGCCAA,1.55
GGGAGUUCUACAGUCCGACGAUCAAUGACACUCAGGUUCACUGUGGAAAACUGUUCUUGGGACUGUCUCAACUGUGCAAAAAACAAAAGAUGGAGUGUUUACAAGUAGACAUUCGUCAUCAGUUGUUCUUGAAUGGAAUUCUCGGGUGCCAA,0.185
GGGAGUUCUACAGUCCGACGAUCACGUUGGAUUUUCGUACACUUCCUUAUACCUUACAUCUUUUAAUGGUCGUUGACUGCUUCACACUUACCUUGCUGAACAUGAACUUUCAGACCUAGAAGUCACUUUUAUGUGGAAUUCUCGGGUGCCAA,0.718
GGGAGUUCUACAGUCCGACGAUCACCCACCUUAGGUGGAGGACUUCCCCAUGCACACCACCACCCCUCUUAGAGCACAGGCUAAGGGCCACGGCUAACAGGGACGUCCCAUUUCUUUCCUGUUCCAUCCAACUUGGAAUUCUCGGGUGCCAA,0.782

# Study 3
# Target: RING finger protein unkempt homolog, zinc fingers 1-6, GST-SBP tag (UNK, Homo sapiens, UniProt Q9C0B0, residues 30-357)
# Method: RNA Bind-n-Seq
# Form: RNA
# Medium: in vitro
# Tested at: not given
# Setting: RNA with constant flanks, human and mouse sites, ends assumed
# Baseline: input RNA pool
# Reading: higher = stronger binding
# Target sequence (chain): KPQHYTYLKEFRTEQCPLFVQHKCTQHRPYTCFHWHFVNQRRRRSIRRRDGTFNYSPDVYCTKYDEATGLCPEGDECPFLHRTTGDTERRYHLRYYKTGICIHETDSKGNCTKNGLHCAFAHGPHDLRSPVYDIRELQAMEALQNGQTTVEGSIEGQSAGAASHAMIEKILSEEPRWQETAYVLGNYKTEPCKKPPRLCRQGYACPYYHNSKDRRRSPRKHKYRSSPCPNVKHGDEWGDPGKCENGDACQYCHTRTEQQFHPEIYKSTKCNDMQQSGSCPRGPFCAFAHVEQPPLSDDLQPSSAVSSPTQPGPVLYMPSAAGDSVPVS
Sequence,bound/input enrichment
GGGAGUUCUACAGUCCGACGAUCGGCCCGGGGCCGCGCUACGAGCUGCGGGACUGCUGCUGGGUGCUGUGCGCGCUGCUCGUGUUCUUCUCCGACGGUGCCACGGACCUGUGGCUGGCGGCCUCCUACUACCUGCAGAAUCAACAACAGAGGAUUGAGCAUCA,0.109 ratio
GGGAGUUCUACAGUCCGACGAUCUUACAACUCAGAUUUUAUUUAUUUUGAAAUUAUCAAUUGUAUAAAUCUAAUUUAUUACCAAAUAGGGUCUUUUAAAAAAUAUUUUUAUCGUUGAAACCUUGACAGGUACUUCAUAUUCUUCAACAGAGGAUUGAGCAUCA,6.25 ratio
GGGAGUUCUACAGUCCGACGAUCUCUGGAGCAGAGCUGUGCACCGGCUGUGGAAGUCGACUGCGCUCCCCCUUCAGUUUUGUGUAUUUACCGAGGUGGUUUUCAUCUGUCUUGGCAAGUUGUCCAAAGAAACCUGUAAGUUCUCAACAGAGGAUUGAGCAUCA,0.117 ratio
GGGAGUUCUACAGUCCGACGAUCACAGGAACAGGGCAGACGUUAGCGUGAGUGAUCACUCUCAAUCCCGGGGACCUGGUGGCCUUAGUCUUUCAGGUGGAACGGUGUGCGACAUGGGAAAGAAAACCAAGCGGACAGCUGACACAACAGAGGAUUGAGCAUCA,0.356 ratio
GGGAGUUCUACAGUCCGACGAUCGGCCAGGUGCUGAGCCUCUGCAGCAGCAUCAAGGAGGCCCCCGUCAAGGCGGCCGAGAUCUGGAUCGCCUCCCUGUCCAGCCAGCCCAUUGACCACGAAGACAGCACCAUGCAGGCCGGCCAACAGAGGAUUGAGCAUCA,0.0889 ratio
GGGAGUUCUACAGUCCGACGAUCGUGGCUGCUUUCUUUGGUACUCUCUCUCCACUCCCAACGUAGCUGUGACGUGUUGUAGUUUUUAGCUGUUUGUAAAAUGUUAAAAAAAAAAAAAGUUAAAAGGAAGUUAAACUAACCACACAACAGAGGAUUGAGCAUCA,2.16 ratio
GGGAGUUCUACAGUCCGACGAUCUGCUGCUUCUGGCUGGCUGGCCUGGCUGUCAUGGCAGUGGGCAUCUGGACGCUGGCCCUCAAGAGUGACUACAUCAGCCUGCUGGCCUCAGGCACCUACCUGGCCACAGCCUACAUCCUGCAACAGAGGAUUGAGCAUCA,0.0723 ratio
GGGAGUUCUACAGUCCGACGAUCAAAGGAAUUACCGAACAGCAAAAAGAAGGUCUUGAGAUAGUGAAAAUGGUGAUGAUAUCUUUAGAAGGUGAAGAUGGGUUGGAUGAAAUUUAUUCAUUCAGUGAGAGUCUGAGAAAACUGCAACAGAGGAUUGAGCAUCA,0.563 ratio

# Study 4
# Target: Phosphate system positive regulatory protein PHO4, full length, GST-tagged (PHO4, Saccharomyces cerevisiae, UniProt P07270, residues 1-312)
# Method: competition protein-binding microarray
# Form: double-stranded DNA, one strand shown
# Medium: in vitro
# Tested at: 2 µM
# Setting: whole 60-bp probe, lowest competitor level
# Added: Cbf1 competitor, 0.05 µM
# Reading: higher = stronger binding
# Construct (chain): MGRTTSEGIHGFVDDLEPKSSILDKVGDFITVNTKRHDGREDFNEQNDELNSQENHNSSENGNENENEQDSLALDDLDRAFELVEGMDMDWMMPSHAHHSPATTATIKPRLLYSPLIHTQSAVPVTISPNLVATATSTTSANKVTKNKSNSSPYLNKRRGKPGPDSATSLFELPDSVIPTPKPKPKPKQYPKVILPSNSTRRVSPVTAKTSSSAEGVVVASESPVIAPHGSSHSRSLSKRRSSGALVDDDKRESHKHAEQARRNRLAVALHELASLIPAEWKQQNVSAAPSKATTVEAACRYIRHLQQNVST
Sequence,fluorescence intensity
CTTTCCCGATCTTGCCTAGTGGGTGTAGCACATTTGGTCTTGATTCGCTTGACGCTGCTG,4700 a.u.
CGTCCTAGTGATTGCACTGTGGGTGCCATGAGGAAGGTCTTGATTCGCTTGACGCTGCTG,6380 a.u.
CATACCCAACCTTGAATGGTGGGTGAAGATATTTGTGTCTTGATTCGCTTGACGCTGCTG,4780 a.u.
TGCGCAACAACTTGAATCGTGGGTGTATGTCTAGAAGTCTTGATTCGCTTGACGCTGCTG,9390 a.u.
GATACCCCGTTGCACCATGTGGAGGATGTAGCCACTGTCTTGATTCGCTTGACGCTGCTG,9920 a.u.
AAATTACTAAGTTGGAAAGTGGGTGACGCCGTATGAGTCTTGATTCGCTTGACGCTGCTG,3530 a.u.
ATTGTGGAATTGGCAGGCGTGACAAACAAATCCGATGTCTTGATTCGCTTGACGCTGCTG,6850 a.u.
AAAATGAGATAGATACATGCGTGAGACAATTGCCTTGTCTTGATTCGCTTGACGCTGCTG,6380 a.u.
CGTCCTAGCGATTGACGAGTGGGTGCCATGAGGAAGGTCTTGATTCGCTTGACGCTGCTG,6370 a.u.
CACTTCCTAACCCATCACGGGATACCGAATTGGGTAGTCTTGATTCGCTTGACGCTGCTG,6820 a.u.
GACAAAAGAAGGTTAAACGTGGCAATGACAAGAGCCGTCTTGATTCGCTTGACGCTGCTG,11000 a.u.
ATATTTTTCCCGTCCTGCGTGCTGTCCCAATACAATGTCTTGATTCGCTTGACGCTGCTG,7000 a.u.
AGGCAAGGAGAGCACCATGTGCTGAGTCACAAATACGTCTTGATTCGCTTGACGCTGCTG,11200 a.u.
CTAACGAAGGTTTGGACCGTGGGTGACAAGCCAAGTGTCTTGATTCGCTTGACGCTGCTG,7790 a.u.
AATGTAGCTCGTAAGCGCCTGATCCAGTAAGCCAAAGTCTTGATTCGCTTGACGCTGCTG,2690 a.u.
ACTTTGGATTATCTGCTCGTGCAAATGAAATATACTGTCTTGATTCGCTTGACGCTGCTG,9430 a.u.
AGCGATACGACAATTTTCGTGGGTATAGACTTCACCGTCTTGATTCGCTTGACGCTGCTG,4070 a.u.
AAAGCGGTAATTTGCCTGGTGGGTGCAGATATCTATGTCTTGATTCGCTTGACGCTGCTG,4080 a.u.
AAAGCGGTAATTTGTACAGTGGGTGCAGATATCTATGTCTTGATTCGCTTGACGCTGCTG,4120 a.u.

# Excerpt of the above (study 3):
Sequence,bound/input enrichment
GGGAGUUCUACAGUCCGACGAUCGGCCCGGGGCCGCGCUACGAGCUGCGGGACUGCUGCUGGGUGCUGUGCGCGCUGCUCGUGUUCUUCUCCGACGGUGCCACGGACCUGUGGCUGGCGGCCUCCUACUACCUGCAGAAUCAACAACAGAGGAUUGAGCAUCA,0.109 ratio
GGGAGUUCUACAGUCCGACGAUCACAGGAACAGGGCAGACGUUAGCGUGAGUGAUCACUCUCAAUCCCGGGGACCUGGUGGCCUUAGUCUUUCAGGUGGAACGGUGUGCGACAUGGGAAAGAAAACCAAGCGGACAGCUGACACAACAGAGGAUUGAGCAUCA,0.356 ratio
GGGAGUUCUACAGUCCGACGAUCGGCCAGGUGCUGAGCCUCUGCAGCAGCAUCAAGGAGGCCCCCGUCAAGGCGGCCGAGAUCUGGAUCGCCUCCCUGUCCAGCCAGCCCAUUGACCACGAAGACAGCACCAUGCAGGCCGGCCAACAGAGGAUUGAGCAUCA,0.0889 ratio
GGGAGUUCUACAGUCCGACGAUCUCUGGAGCAGAGCUGUGCACCGGCUGUGGAAGUCGACUGCGCUCCCCCUUCAGUUUUGUGUAUUUACCGAGGUGGUUUUCAUCUGUCUUGGCAAGUUGUCCAAAGAAACCUGUAAGUUCUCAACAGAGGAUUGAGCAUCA,0.117 ratio
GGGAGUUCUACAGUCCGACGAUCUGCUGCUUCUGGCUGGCUGGCCUGGCUGUCAUGGCAGUGGGCAUCUGGACGCUGGCCCUCAAGAGUGACUACAUCAGCCUGCUGGCCUCAGGCACCUACCUGGCCACAGCCUACAUCCUGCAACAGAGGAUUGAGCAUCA,0.0723 ratio
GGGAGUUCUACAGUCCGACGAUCUUACAACUCAGAUUUUAUUUAUUUUGAAAUUAUCAAUUGUAUAAAUCUAAUUUAUUACCAAAUAGGGUCUUUUAAAAAAUAUUUUUAUCGUUGAAACCUUGACAGGUACUUCAUAUUCUUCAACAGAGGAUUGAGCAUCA,6.25 ratio
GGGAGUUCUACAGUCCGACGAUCAAAGGAAUUACCGAACAGCAAAAAGAAGGUCUUGAGAUAGUGAAAAUGGUGAUGAUAUCUUUAGAAGGUGAAGAUGGGUUGGAUGAAAUUUAUUCAUUCAGUGAGAGUCUGAGAAAACUGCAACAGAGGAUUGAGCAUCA,0.563 ratio
